Measured values from different studies.
Compare with care: the assays were run in different laboratories. ± marks the error that the study gave.
ABCB1: ATP-dependent translocase ABCB1 (ABCB1, Homo sapiens, UniProt P08183)
Chain of UniProt P08183 (whole entry, looked up): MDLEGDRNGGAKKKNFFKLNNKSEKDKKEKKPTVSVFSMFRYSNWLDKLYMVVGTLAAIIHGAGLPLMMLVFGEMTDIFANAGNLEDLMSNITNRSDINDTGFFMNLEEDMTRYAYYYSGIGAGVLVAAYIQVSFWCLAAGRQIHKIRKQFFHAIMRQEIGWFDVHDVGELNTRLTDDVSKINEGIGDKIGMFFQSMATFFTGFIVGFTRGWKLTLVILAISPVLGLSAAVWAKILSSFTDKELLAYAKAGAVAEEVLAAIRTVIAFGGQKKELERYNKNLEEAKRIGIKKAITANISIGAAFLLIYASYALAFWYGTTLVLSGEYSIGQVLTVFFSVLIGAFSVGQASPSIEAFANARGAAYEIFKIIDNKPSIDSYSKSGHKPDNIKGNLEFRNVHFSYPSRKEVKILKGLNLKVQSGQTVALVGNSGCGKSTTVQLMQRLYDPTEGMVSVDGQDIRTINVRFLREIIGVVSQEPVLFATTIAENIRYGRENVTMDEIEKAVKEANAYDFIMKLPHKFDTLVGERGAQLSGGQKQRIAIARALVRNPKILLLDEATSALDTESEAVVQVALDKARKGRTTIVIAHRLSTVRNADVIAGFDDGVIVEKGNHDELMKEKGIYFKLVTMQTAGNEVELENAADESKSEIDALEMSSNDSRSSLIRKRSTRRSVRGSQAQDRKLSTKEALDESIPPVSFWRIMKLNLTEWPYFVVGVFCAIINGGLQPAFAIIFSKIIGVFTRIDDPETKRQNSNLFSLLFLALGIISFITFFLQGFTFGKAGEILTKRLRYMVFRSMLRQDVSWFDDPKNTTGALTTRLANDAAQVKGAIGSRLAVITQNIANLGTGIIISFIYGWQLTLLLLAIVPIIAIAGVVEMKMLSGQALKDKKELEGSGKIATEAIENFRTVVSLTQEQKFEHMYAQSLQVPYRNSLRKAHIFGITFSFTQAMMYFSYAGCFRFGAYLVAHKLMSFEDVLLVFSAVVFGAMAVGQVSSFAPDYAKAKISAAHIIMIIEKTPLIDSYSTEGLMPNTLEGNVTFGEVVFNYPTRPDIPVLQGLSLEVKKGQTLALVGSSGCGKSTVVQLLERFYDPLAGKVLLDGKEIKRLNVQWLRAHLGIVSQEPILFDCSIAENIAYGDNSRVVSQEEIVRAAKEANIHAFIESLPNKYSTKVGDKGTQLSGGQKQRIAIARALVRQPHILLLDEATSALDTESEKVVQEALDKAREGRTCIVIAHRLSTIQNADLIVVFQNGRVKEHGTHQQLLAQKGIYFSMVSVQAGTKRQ

Molecule	tested on	test	system	setting	measurement	result
COc1ccccc1C(=O)N1CCN(c2cc(-c3ccccc3)nc3cc(-c4cccc(Cl)c4)nn23)CC1	ABCB1	JC-1 efflux, inhibitor	Jurkat-DNR	–	IC50	4.73 ± 1.78 µM
CC(C)(C)c1cc(C(C)(C)C)c(NC(=O)c2c[nH]c3ccccc3c2=O)cc1O	Calu-3	–	–	concentration not given, 4 h, basal to apical transport	intracellular accumulation	18 to 34%
COc1ccc(C(=O)Nc2cc3nc(C4CCCCC4)[nH]c3cc2N(C)C)cc1	Vero	cytotoxicity, Alamar Blue	–	3 days, 37 °C	IC50	> 100 µg/mL
Telavancin	J774 mouse macrophages	–	–	90 mg/L, 24 h	cellular concentration	4 mg/mL
c1ccc(N(c2ccccc2)c2ccc(-c3ccc(N(c4ccccc4)c4ccc(-c5ccc(N(c6ccccc6)c6ccc(-c7ccc(N(c8ccccc8)c8ccccc8)cc7)cc6)cc5)cc4)cc3)cc2)cc1	Cyprinus carpio	everted gut sac	intestine	concentration not given, 24 h, 23 °C	concentration in mucosal solution	97.7 ± 1.5 µg/mL
C#C[C@]1(COP(=O)(O)OP(=O)(O)OP(=O)(O)O)O[C@@H](n2cnc3c(N)nc(F)nc32)C[C@@H]1O	human PBMC tumour model	–	host not given, plasma	oral, 200 mg, single dose, fasted	half-life	160 h
O=C(c1ccccc1)N1CCN(c2cc(-c3ccccc3)nc3cc(-c4ccc(F)cc4)nn23)CC1	ABCB1	JC-1 efflux, inhibitor	Jurkat-DNR	–	IC50	3.99 ± 2.31 µM
CCCCNC(=O)Nc1cc2nc(C3CCCCC3)[nH]c2cc1N1CCCC1	Vero	cytotoxicity, Alamar Blue	–	3 days, 37 °C	IC50	> 100 µg/mL
CC(C)(C)c1cc(CCC(=O)OCC(COC(=O)CCc2cc(C(C)(C)C)c(O)c(C(C)(C)C)c2)(COC(=O)CCc2cc(C(C)(C)C)c(O)c(C(C)(C)C)c2)COC(=O)CCc2cc(C(C)(C)C)c(O)c(C(C)(C)C)c2)cc(C(C)(C)C)c1O	Cyprinus carpio	everted gut sac	intestine	concentration not given, 24 h, 23 °C	concentration in mucosal solution	75.7 ± 5.1 µg/mL
CCCCCC(=O)Nc1cc2nc(C3CCCCC3)[nH]c2cc1N1CCCC1	Vero	cytotoxicity, Alamar Blue	–	3 days, 37 °C	IC50	> 100 µg/mL
CC(C)(C)c1cc(N2CCN(C(=O)c3ccoc3)CC2)n2nc(-c3ccccc3)cc2n1	ABCB1	JC-1 efflux, inhibitor	Jurkat-DNR	–	IC50	5.62 µM
CCCCCC(=O)Nc1cc2nc(C3CCCCC3)[nH]c2cc1N(C)C	Vero	cytotoxicity, Alamar Blue	–	3 days, 37 °C	IC50	> 100 µg/mL
COc1cccc(-c2cc3nc(-c4ccccc4)cc(N4CCN(C(=O)c5ccoc5)CC4)n3n2)c1	ABCB1	JC-1 efflux, inhibitor	Jurkat-DNR	–	IC50	2.26 ± 0.83 µM
c1ccc2c(c1)ccc1ccccc12	Cyprinus carpio	everted gut sac	intestine	concentration not given, 24 h, 23 °C	concentration in mucosal solution	122 ± 5.8 µg/mL
CCCCNC(=O)Nc1cc2nc(C3CCCCC3)[nH]c2cc1N(C)C	Vero	cytotoxicity, Alamar Blue	–	3 days, 37 °C	IC50	> 100 µg/mL
O=C(Cc1ccccc1)N1CCN(c2cc(-c3ccccc3)nc3cc(-c4cccc(Cl)c4)nn23)CC1	ABCB1	JC-1 efflux, inhibitor	Jurkat-DNR	–	IC50	4.68 ± 2.69 µM
CN(C)c1cc2[nH]c(C3CCCCC3)nc2cc1NC(=O)OCc1ccccc1	Vero	cytotoxicity, Alamar Blue	–	3 days, 37 °C	IC50	> 100 µg/mL
Cc1cc(N2CCN(C(=O)c3ccco3)CC2)n2nc(-c3cccc(Cl)c3)cc2n1	ABCB1	JC-1 efflux, inhibitor	Jurkat-DNR	–	IC50	5.88 ± 1.17 µM

For quick reference, copied from above:
Molecule	tested on	test	system	setting	measurement	result
CCCCCC(=O)Nc1cc2nc(C3CCCCC3)[nH]c2cc1N(C)C	Vero	cytotoxicity, Alamar Blue	–	3 days, 37 °C	IC50	> 100 µg/mL
COc1cccc(-c2cc3nc(-c4ccccc4)cc(N4CCN(C(=O)c5ccoc5)CC4)n3n2)c1	ABCB1	JC-1 efflux, inhibitor	Jurkat-DNR	–	IC50	2.26 ± 0.83 µM
c1ccc2c(c1)ccc1ccccc12	Cyprinus carpio	everted gut sac	intestine	concentration not given, 24 h, 23 °C	concentration in mucosal solution	122 ± 5.8 µg/mL
